Experimental data collected from several papers.
Lines come from different studies, so protocols differ. “And” joins repeats or separate records; there may be more than shown. ± gives the spread as reported.
B1: enzyme (Enterococcus faecalis, UniProt Q836M4); chain MEIHFEKVTSDNRKAVENLQVFAEQQAFIESMAENLKESDQFPEWESAGIYDGNQLIGYAMYGRWQDGRVWLDRFLIDQRFQGQGYGKAACRLLMLKLIEKYQTNKLYLSVYDTNSSAIRLYQQLGFVFNGELDTNGERVMEWTHQNK
Sequence of UniProt Q96RI1 (whole entry, looked up): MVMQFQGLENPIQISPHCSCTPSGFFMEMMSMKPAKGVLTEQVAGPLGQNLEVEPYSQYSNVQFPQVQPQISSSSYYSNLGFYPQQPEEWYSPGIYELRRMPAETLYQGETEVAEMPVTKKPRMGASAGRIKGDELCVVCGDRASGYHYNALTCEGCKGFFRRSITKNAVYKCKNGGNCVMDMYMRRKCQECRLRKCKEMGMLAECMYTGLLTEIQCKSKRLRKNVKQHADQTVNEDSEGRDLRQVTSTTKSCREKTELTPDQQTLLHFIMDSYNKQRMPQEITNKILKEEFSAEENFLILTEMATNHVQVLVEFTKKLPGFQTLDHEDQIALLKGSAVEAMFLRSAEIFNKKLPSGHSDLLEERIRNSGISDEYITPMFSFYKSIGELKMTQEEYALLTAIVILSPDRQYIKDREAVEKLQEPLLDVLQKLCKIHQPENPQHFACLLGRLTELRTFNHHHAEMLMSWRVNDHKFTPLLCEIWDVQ

| Substance | target or system | assay | system | conditions | how to read | endpoint | value |
| --- | --- | --- | --- | --- | --- | --- | --- |
| capreomycin sulfate | – | – | guinea pig, serum | insufflation, dose not given, dry powder combination single dose | – | Cmax | 2690 ng/mL |
| abamectin | HepG2 | RNA-seq and ChIP-seq | – | 10 µM, 24 h | – | regulated LRH-1 target genes | 9.9% |
| KLPQLCTEV | HPV16 E6-specific T-cell line | ELISA | peptide, supernatant | concentration not given, 24 h, together with: peptide-pulsed autologous B cells | – | IFN-γ release | 699 pg/mL |
| SATSFPPSYESVARG | human DRG neurons | – | peptide, human | 10 µM, 24 h | baseline: scrambled peptide | NaV1.8 immunoreactivity | decreased |
| KISEYRHYC | ASPC1 (HLA-A2− HPV−) | 111In release | peptide | concentration not given, 16 h, E:T 25:1, IVS 5, together with: peptide-generated T-cell line | – | specific lysis | -1.1% and 0.5% |
| Tunicamycin | HEK293 | western blot, measured: ATF4 | – | 10 µg/mL, 6 h, unit not given | baseline: mock | protein level | 1.13 and 1.25 and 1.91 |
| hexaarginine | PorA peptide pore | peptide binding, planar bilayer single-channel recording | – | 0.5 µM, pH 7.4, -20 mV, cis side, 150 mM KCl | – | koff | 3450 ± 340 s⁻¹ |
| insulin human | – | measured: TGM2 mRNA | EcoHIV-infected mouse, brain | i.p., dose not given | baseline: PBS | fold change | 1 |
| B1 (enzyme) | NCCCCNCCCN | steady-state kinetics | – | pH 8, 37 °C, together with: AcCoA 1 mM | – | kcat/Km | 1560 M⁻¹ s⁻¹ |
| KISEYRHYV | Ca-Ski (HLA-A2+ HPV+) | 111In release | peptide | concentration not given, 16 h, E:T 25:1 IVS 5, together with: peptide-generated T-cell line | – | specific lysis | 24.2% |
| SFLLRNPNDKYEPF | BPAEC | fura-2 | peptide | 10 µM | baseline: basal | cytosolic Ca2+ increase | 7 fold |
| C.I. Basic Violet 14 | HepaRG | ROS-Glo luminescence | – | – | – | maximal ROS response | -52.2 ± 76.9% |
| lead | U87 glioblastoma | CCK-8 | – | 10 µM, 24 h, unit not given | baseline: untreated control | viability | 0.53 |
| HVLVMSATRR | – | – | peptide, C57BL/6J mice, male, serum | subcutaneous osmotic pump, 3 mg/kg/day peptide basis, 8 weeks | – | GGT | 0 U/L |
| colistin | Aspergillus fumigatus | – | conidia | 5 µM, together with: caspofungin 0.2 µg/mL | baseline: caspofungin alone | CFU relative to caspofungin alone | 2.41 and 3.28 and 1.11 |
| CLDPVDTPNPTR | RAW264.7 | Western blot | peptide | concentration not given, 6 h pretreatment, together with: LPS 30 min | – | p-p38/p38 ratio | 0.44 ± 0.11 |
| VSYVPMQGALTQ | B-NHL cells | inhibitor, Western blot, measured: RELB, NFκB2, IKKα, phospho-IKKα | peptide | 25 µM, 24 h | – | protein level | no effect |

| Substance | target or system | assay | system | conditions | how to read | endpoint | value |
| --- | --- | --- | --- | --- | --- | --- | --- |
| TVFYNIPPMPL | PBMCs from EBV-positive healthy donor | HLA-DRB1*07:01 tetramer | peptide | concentration not given, uninduced | baseline: CD4 T cells | tetramer-positive CD4 T cells | 0.06% |
| PSLLSSEDNADDEVDTRPASFWETS | Hepa1-6 | – | peptide | concentration not given, 18 h, serum-free, together with: Jo2 | – | Jo2-induced cell death | decreased |
| cucurbitacin B | uveal melanoma lines MP41, MP38, MP46 | cell viability | – | average over lines | – | IC50 | 37.9 nM |
| KLPQLCTEL | HPV16 E6-specific T-cell line | ELISA | peptide, supernatant | concentration not given, 24 h, together with: peptide-pulsed autologous B cells | – | IFN-γ release | 264 pg/mL |
| LHKLLHHLLHHLHKLLHHLHHLLHKLC | human red blood cells | hemolysis | peptide | 1 h, pH 7.4 | baseline: Triton X-100 | EC50 | > 100000 nM |
| Polymyxin B | – | – | mouse, urine | 20 mg/kg | – | Kim-1 level | 40.1 ng/mL |
| Apelin | HUVEC expressing APJ | Transwell | – | 200 ng/mL | baseline: control | cell migration | 1.5 fold |
| CEMDGQCKRDLKCCMGMCGKSCVSPVKA | RAW264.7 | Western blot | peptide | concentration not given, 6 h pretreatment, together with: LPS 30 min | – | p-ERK/ERK ratio | 0.57 ± 0.05 |
| DPDPE | – | RP-HPLC | HALO Phenyl-hexyl column | 25 µM, acetic acid/acetonitrile, 10 min gradient | – | retention time | 5.32 min |
| nonaarginine | PorA peptide pore | peptide binding, planar bilayer single-channel recording | – | 0.5 µM, pH 7.4, -25 mV, cis side, 150 mM KCl | – | koff | 526 ± 53 s⁻¹ |
| aspterric acid | – | root length | Arabidopsis thaliana Col-0 seeds | 25.0 µg/mL, 7 days, dark | – | inhibition | 99.2% |
| LWWGMAKYCAAKLTCMC | HS-SY-II | degrader, transient transfection, measured: SS18-SSX1 | peptide | concentration not given, 3 days | – | protein level reduction | > 40% |
| Ivermectin | Bile acid receptor (NR1H4, Homo sapiens, UniProt Q96RI1) | receptor activity, inhibitor | cells | – | – | IC50 | 1180 ± 980 nM |
| RTLEDLLMGT | HN12 (HLA-A2+ HPV+) | 111In release | peptide | concentration not given, 16 h, E:T 25:1 IVS 5, together with: peptide-generated T-cell line | – | specific lysis | 34.6% |
| LPLKMLNIPSINVH | stimulated healthy donor PBMCs | multimer staining, measured: DRB1*01:01 tetramer | peptide | concentration not given, undiluted | baseline: CD4 T cells | antigen-specific CD4 T cells | 0.53% |
| ciclosporin | Jurkat, activated | IL-2 secretion, immunosuppressant | – | – | – | IC50 | 0.065 nM |
